Experimental data pooled from the literature.
Compare with care: the assays were run in different laboratories. Several values in a cell are separate wells, animals, samples, runs or records. Numbers after ± are the reported error. In brackets after ≈: the same amount, converted by molar mass.

C=CCNCCc1c[nH]c2cccc(O)c12.C=CCNCCc1c[nH]c2cccc(O)c12.O=C(O)/C=C/C(=O)O  head twitch count (C57BL/6J mice; subcutaneous, 30 mg/kg): 31 ± 6.8
C[C@H]1O[C@@H](O[C@H]2CC[C@@]3(C)[C@@H](CC[C@]4(C)[C@@H]3C=C[C@]35OC[C@@]6(CCC(C)(C)C[C@H]63)[C@@H](O)C[C@]54C)[C@]2(C)CO)[C@H](O)[C@@H](O[C@@H]2O[C@H](CO)[C@@H](O)[C@H](O)[C@H]2O)[C@H]1O  AST/ALT ratio (mouse, pair-fed, AAV8-TBG-Null, plasma; dose not given, high dose): 1.18 and 1.99 and 2.23 and 2.12
CCCCCCCCCCCCCCCCCC[N+](C)(C)CCCCCCCCCC[N+](C)(C)CCCCCCCCCCCCCCCCCC.[Br-].[Br-]  HA titre reduction (influenza A virus A/PR/8/34 (H1N1); concentration not given, co-treatment): 5 log units
C=CCN1CC[C@]23c4c5ccc(O)c4O[C@H]2C(=O)CC[C@@]3(O)[C@H]1C5  maximum possible effect (antinociception, hot plate; male ICR-CD1 mice; subcutaneous, 5 mg/kg, 45 min): 5.34% and 9.51% and -22.3% and -1.86% and 8.54% and -9.33%
CCCNCCc1c[nH]c2cccc(O)c12.CCCNCCc1c[nH]c2cccc(O)c12.O=C(O)/C=C/C(=O)O  head twitch count (C57BL/6J mice; subcutaneous, 1 mg/kg): 13.8 ± 2.3
COc1cc(CCC[P+](c2ccccc2)(c2ccccc2)c2ccccc2)c(OC)c2c1OCO2.[I-]  GI50 (RXF 393; SRB): -5.7 log M
CC(C)(C)NCCc1c[nH]c2cccc(O)c12.CC(C)(C)NCCc1c[nH]c2cccc(O)c12.O=C(O)/C=C/C(=O)O  distance travelled (C57BL/6J mice; subcutaneous, 1 mg/kg, 30 min): 2440 ± 313 cm
CCCCCCCCCCCC[N+](C)(C)CCCCCC[N+](C)(C)CCCCCCCCCCCC.[Br-].[Br-]  protection (influenza A virus A/PR/8/34 (H1N1); concentration not given, pre-treatment): 66.1 ± 5.9%
CN1CCN(S(=O)(=O)c2cc([N+](=O)[O-])ccc2N(CCOS(C)(=O)=O)CCOS(C)(=O)=O)CC1  EFS ratio (T/C) (NSG mice, sample BB PDX; intraperitoneal, 25 mg/kg weekly x3; relative to: treated over vehicle): 4.3
O=c1ccn([C@@H]2O[C@](F)(CO)[C@@H](O)[C@H]2O)c(=O)[nH]1  normalized viral replication (human respiratory syncytial virus; recombinant reporter virus; concentration not given, scale 0 to 100, with: adenosine 33.3 µM): 0
COc1c(CCC[P+](c2ccccc2)(c2ccccc2)c2ccccc2)cc2c(c1OC)OCO2.[I-]  TGI (U-251; SRB): -4.71 log M
CCCCCCCCCCCCCCCC[N+](C)(C)CCCCCCCCCC[N+](C)(C)CCCCCCCCCCCCCCCC.[Br-].[Br-]  protection (influenza A virus A/PR/8/34 (H1N1); concentration not given, post-treatment): 66.4 ± 9.3%
O=C(Cc1cccc([N+](=O)[O-])c1)N[C@H]1CCOC1=O  activation (ExpR2 (Pectobacterium carotovorum); cellulase activity, agonist; Pectobacterium carotovorum, single-ExpR2 strain; 200 µM, 4 h; relative to: OHHL): 103%
CCCCCCCCCCCCCCCCCC[N+](C)(C)CCCCCCCCCCCC[N+](C)(C)CCCCCCCCCCCCCCCCCC.[Br-].[Br-]  HA titre reduction (influenza A virus A/PR/8/34 (H1N1); concentration not given, pre-treatment): 1 log units
N.N.[Cl][Pt][Cl]  tumour volume (SAS xenograft, KSN/Slc nude mice; dose not given, day 0, group mean): 67.6 mm3
C[C@]12CC[C@H]3[C@@H](CC=C4CC(O)CC[C@@]43CO)[C@@H]1CCC2O (stereo partly drawn)  fold increase (immunoblot, refers to: FXR protein; rat, GAN diet-induced MASH, liver; dose not given; relative to: GAN diet plus vehicle): ~2
CCCCCCCCCCCCCCCC[N+](C)(C)CCCCCC[N+](C)(C)CCCCCCCCCCCCCCCC.[Br-].[Br-]  HA titre reduction (influenza A virus A/PR/8/34 (H1N1); concentration not given, post-treatment): 4 ± 1 log units
O=C(O)/C=C/C(=O)O.Oc1cccc2[nH]cc(CCNC3CCCCC3)c12  head twitch count (C57BL/6J mice; subcutaneous, 0.3 mg/kg): 6.5 ± 1.4
CC(NC(C)(C)C)C(=O)c1cccc(Cl)c1 (stereo not drawn)  lowest IC30 (seizure ion channel panel; ion current, inhibitor; lowest across channels): 10.5 µM
CS(=O)(=O)CCCn1c(Cn2c(=O)n(CC(F)(F)F)c3ccncc32)cc2cc(Cl)ccc21  LS mean difference vs placebo (respiratory syncytial virus; RT-qPCR; hospitalized infants 1-24 months, nasal swab; oral, 2, 1.5 or 1 mg/kg daily, day 6, low dose by age cohort; relative to: placebo): 0.2 log10 copies/mL
CCCCNCCc1c[nH]c2cccc(O)c12.O=C(O)/C=C/C(=O)O  distance travelled (C57BL/6J mice; subcutaneous, 30 mg/kg, 30 min): 1470 ± 318 cm
CN1CCN(C2(CNC3CCN(c4cccc(-c5cc6cc(F)ccc6[nH]5)c4)CC3)CCC2)CC1  GI50 (RXF 393): 1.53 µM
CC(C)NCCc1c[nH]c2cccc(O)c12.O=C(O)/C=C/C(=O)O  head twitch count (C57BL/6J mice; subcutaneous, 0.1 mg/kg): 5.5 ± 0.9
Cl.ClCCN(CCCl)c1ccc(CCNc2ccnc3cc(Cl)ccc23)cc1  inhibition (Dengue virus type 2; viral replication, Rluc reporter replicon; BHK-21 DENV2 replicon cells; 50 µM, 24 h): 99.8 ± 0.03%
NCCc1ccc(Oc2ccc(O)cc2)c(I)c1  maximum body temperature change (wild-type mice; ip, 50 mg/kg, 60 min; relative to: saline): -6 ± 0.4 °C
CC[C@H](C)[C@@H]1NC(=O)[C@@H]2CCCN2C(=O)[C@H](CC(C)C)NC(=O)[C@H](CC(C)C)NC(=O)CNC(=O)[C@@H](NC(=O)[C@@H](NC(=O)[C@H](CC(=O)O)NC(=O)CNC(=O)[C@@H](NC(=O)[C@H](C)NC(=O)CNC(=O)[C@H](CCCCN)NC(=O)[C@H](CC(C)C)NC(=O)[C@H](CC(C)C)NC(=O)[C@H](CCCCN)NC(=O)CNC(=O)[C@@H](NC(=O)[C@@H](N)CC(C)C)C(C)C)C(C)C)C(C)C)CSSC[C@@H](C(=O)O)NC1=O  log2 fold change (RNA-seq, refers to: Rab11fip1 mRNA; mouse traumatic brain injury, frontal cortex and hippocampus; dose not given; relative to: TBI plus compound vs TBI): -3.11
CCNCCc1c[nH]c2cccc(O)c12.CCNCCc1c[nH]c2cccc(O)c12.O=C(O)CCC(=O)O  distance travelled (C57BL/6J mice; subcutaneous, 0.3 mg/kg, 30 min session): 2400 ± 291 cm
CCCCCCCCCCCCCCCC[N+](C)(C)Cc1ccc(C[N+](C)(C)CCCCCCCCCCCCCCCC)cc1.[Br-].[Br-]  HA titre reduction (influenza A virus A/PR/8/34 (H1N1); concentration not given, pre-treatment): 2 log units
CCCCC1(CCCC)CN(c2ccccc2)c2cc(SC)c(OCC(=O)N[C@@H](C(=O)NCC(=O)O)c3ccccc3)cc2S(=O)(=O)C1  serum LDL-C (refers to: LDL cholesterol; human, serum; 5 mg once daily, day 1): 123 mg/dL
CC[C@H](C)[C@H](NC(=O)[C@H](C)NC(=O)[C@H](CCCCN)NC(=O)[C@H](CC(C)C)NC(=O)[C@H](C)NC(=O)[C@@H](NC(=O)[C@H](Cc1c[nH]cn1)NC(=O)[C@H](CC(C)C)NC(=O)[C@@H](NC(=O)[C@@H](NC(=O)[C@H](CCCCN)NC(=O)[C@H](C)NC(=O)[C@H](C)NC(=O)[C@H](CO)NC(=O)[C@H](CCCCN)NC(=O)[C@H](Cc1ccccc1)NC(=O)[C@@H](NC(=O)[C@H](CCCCN)NC(=O)[C@H](CC(C)C)NC(=O)[C@H](Cc1ccccc1)NC(=O)[C@H](CO)NC(=O)[C@H](CCCCN)NC(=O)[C@H](Cc1c[nH]c2ccccc12)NC(=O)[C@H](CCCCN)NC(C)=O)[C@@H](C)O)[C@@H](C)O)C(C)C)[C@@H](C)O)C(=O)N[C@@H](CO)C(=O)N[C@@H](CO)C(N)=O  MIC range (Enterococcus faecalis; ATCC 29212): 32 µg/mL (≈ 10.9 µM)

Excerpt of the above:
CC[C@H](C)[C@@H]1NC(=O)[C@@H]2CCCN2C(=O)[C@H](CC(C)C)NC(=O)[C@H](CC(C)C)NC(=O)CNC(=O)[C@@H](NC(=O)[C@@H](NC(=O)[C@H](CC(=O)O)NC(=O)CNC(=O)[C@@H](NC(=O)[C@H](C)NC(=O)CNC(=O)[C@H](CCCCN)NC(=O)[C@H](CC(C)C)NC(=O)[C@H](CC(C)C)NC(=O)[C@H](CCCCN)NC(=O)CNC(=O)[C@@H](NC(=O)[C@@H](N)CC(C)C)C(C)C)C(C)C)C(C)C)CSSC[C@@H](C(=O)O)NC1=O  log2 fold change (RNA-seq, refers to: Rab11fip1 mRNA; mouse traumatic brain injury, frontal cortex and hippocampus; dose not given; relative to: TBI plus compound vs TBI): -3.11
CCNCCc1c[nH]c2cccc(O)c12.CCNCCc1c[nH]c2cccc(O)c12.O=C(O)CCC(=O)O  distance travelled (C57BL/6J mice; subcutaneous, 0.3 mg/kg, 30 min session): 2400 ± 291 cm
